Published values gathered from unrelated publications.
Numbered parts are unrelated; each lists some results of a single study.

Study 1
Target: Centromere-binding protein 1, full length, His-tagged (CBF1, Saccharomyces cerevisiae, UniProt P17106, residues 1-351)
Chain of UniProt P17106 (whole entry, looked up): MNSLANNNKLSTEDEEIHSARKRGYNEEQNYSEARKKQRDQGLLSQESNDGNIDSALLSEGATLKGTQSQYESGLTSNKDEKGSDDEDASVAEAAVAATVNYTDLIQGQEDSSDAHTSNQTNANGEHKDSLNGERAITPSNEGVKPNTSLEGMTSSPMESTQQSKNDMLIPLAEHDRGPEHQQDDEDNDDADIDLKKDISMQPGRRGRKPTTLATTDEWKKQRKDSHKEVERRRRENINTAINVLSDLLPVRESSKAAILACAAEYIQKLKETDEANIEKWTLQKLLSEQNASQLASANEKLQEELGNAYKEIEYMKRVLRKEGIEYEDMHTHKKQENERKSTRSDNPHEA
Technique: competition protein-binding microarray
Molecule type: double-stranded DNA, one strand shown
Matrix: in vitro
Tested at: 2 µM
Notes: whole 60-bp probe, lowest competitor level
Added: Pho4 competitor, 0.05 µM
Reading: higher = stronger binding
For `CGGGGTTAAGTTTGGAGCGTGGGTGGCTTGCAGCAGGTCTTGATTCGCTTGACGCTGCTG`, the fluorescence intensity was 84.8 a.u.
The fluorescence intensity of `TGGAATAACAGTTGGCATGTGCCCACTGTATTCATGGTCTTGATTCGCTTGACGCTGCTG` is reported as 191 a.u.
For `AAATTACTAAGTTTTCACGTGCGATACCCCGTATGAGTCTTGATTCGCTTGACGCTGCTG`, the fluorescence intensity was 876 a.u.

Study 2
Target: Sal-like protein 4, full length isoform A (SALL4, Homo sapiens, UniProt Q9UJQ4, residues 1-1053)
Chain of UniProt Q9UJQ4 (whole entry, looked up): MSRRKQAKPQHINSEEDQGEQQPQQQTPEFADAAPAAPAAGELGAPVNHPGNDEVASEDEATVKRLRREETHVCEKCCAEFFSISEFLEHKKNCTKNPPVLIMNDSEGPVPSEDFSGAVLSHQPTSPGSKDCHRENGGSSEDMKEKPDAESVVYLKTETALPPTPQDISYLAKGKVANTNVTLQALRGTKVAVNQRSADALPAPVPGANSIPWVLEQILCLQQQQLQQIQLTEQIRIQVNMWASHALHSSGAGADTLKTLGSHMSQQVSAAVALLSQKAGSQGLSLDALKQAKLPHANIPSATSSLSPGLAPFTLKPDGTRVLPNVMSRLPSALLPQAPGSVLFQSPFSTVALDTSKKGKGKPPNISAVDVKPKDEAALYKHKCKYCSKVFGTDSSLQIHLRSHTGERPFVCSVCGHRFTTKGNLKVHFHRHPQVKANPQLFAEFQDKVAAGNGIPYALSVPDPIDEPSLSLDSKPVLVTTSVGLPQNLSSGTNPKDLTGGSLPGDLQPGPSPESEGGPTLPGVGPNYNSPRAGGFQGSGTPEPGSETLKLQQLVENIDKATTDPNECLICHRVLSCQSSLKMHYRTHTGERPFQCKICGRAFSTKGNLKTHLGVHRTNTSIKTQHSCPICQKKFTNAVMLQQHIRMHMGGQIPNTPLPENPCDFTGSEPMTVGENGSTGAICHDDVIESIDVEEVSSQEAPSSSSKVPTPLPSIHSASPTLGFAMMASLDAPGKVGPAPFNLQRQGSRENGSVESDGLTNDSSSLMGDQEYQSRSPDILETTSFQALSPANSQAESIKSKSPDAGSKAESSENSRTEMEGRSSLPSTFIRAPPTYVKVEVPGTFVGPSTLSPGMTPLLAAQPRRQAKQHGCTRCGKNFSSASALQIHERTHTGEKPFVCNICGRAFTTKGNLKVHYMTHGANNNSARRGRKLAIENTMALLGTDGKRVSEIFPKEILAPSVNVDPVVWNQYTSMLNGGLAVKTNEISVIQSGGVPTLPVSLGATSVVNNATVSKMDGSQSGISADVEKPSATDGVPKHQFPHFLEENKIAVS
Technique: universal PBM
Molecule type: double-stranded DNA, one strand shown
Matrix: in vitro
Tested at: 600 nM
Notes: 8-mer, flanks averaged, mean of replicates
Reading: higher = stronger binding
For `CGATGTAC`, the E-score was 0.101.
The E-score of `CGAATATC` is reported as 0.19.
The E-score of `AAGACTTC` is reported as -0.0642.
For `CCCGAGCA`, the E-score was -0.115.
For `GCCGACGC`, the E-score was -0.266.

Study 3
Target: Histone acetyltransferase KAT6A, both winged helices, GST fusion (KAT6A, Homo sapiens, UniProt Q92794, residues 1-181)
Technique: protein binding microarray
Molecule type: double-stranded DNA, one strand shown
Matrix: in vitro
Tested at: not given
Notes: 8-mer, flanks averaged, mean of 2 arrays, mostly near background
Relative to: not given
Reading: higher = stronger binding
Construct (chain): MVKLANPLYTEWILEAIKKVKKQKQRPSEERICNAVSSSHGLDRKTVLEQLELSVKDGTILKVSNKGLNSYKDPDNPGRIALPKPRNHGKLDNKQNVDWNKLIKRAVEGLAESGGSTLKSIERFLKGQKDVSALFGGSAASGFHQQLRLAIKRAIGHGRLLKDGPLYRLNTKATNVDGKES
The E-score of `AGTGTATC` is reported as -0.14.
With `AGAGTTCG` the E-score was 0.0533.
`CTACTGAA` gave an E-score of -0.107.
`GGAATCCC` gave an E-score of -0.0588.
For `ATTGTCGC`, the E-score was 0.032.
With `CGCGAACA` the E-score was 0.172.

Mixed results
The fold induction of `PhoQ, residues 284 288 289 292 302 303 QWGLFV` is reported as 0.786 (PhoP, residues 12 14 15 18 19 NFCKL (Escherichia coli, UniProt P23836); Sort-seq, measured: YFP reporter; E. coli; PhoQ-PhoP variant library, added: 10 µM Mg2+; relative to: high Mg2+ state, higher = stronger signaling).

Some of these lines once more (study 2):
For `CCCGAGCA`, the E-score was -0.115.
